# Assay results collected from several papers.
# Protocols differ between the studies behind these lines. ± gives the spread as reported.
# B1: bglA S39T (Acetivibrio thermocellus, UniProt P26208); chain MSKITFPKDFIWGSATAAYQIEGAYNEDGKGESIWDRFTHTPGNIADGHTGDVACDHYHRYEEDIKIMKEIGIKSYRFSISWPRIFPEGTGKLNQKGLDFYKRLTNLLLENGIMPAITLYHWDLPQKLQDKGGWKNRDTTDYFTEYSEVIFKNLGDIVPIWFTHNEPGVVSLLGHFLGIHAPGIKDLRTSLEVSHNLLLSHGKAVKLFREMNIDAQIGIALNLSYHYPASEKAEDIEAAELSFSLAGRWYLDPVLKGRYPENALKLYKKKGIELSFPEDDLKLISQPIDFIAFNNYSSEFIKYDPSSESGFSPANSILEKFEKTDMGWIIYPEGLYDLLMLLDRDYGKPNIVISENGAAFKDEIGSNGKIEDTKRIQYLKDYLTQAHRAIQDGVNLKAYYLWSLLDNFEWAYGYNKRFGIVHVNFDTLERKIKDSGYWYKEVIKNNGF
# B2: enzyme (Enterococcus faecalis, UniProt Q836M4); chain MEIHFEKVTSDNRKAVENLQVFAEQQAFIESMAENLKESDQFPEWESAGIYDGNQLIGYAMYGRWQDGRVWLDRFLIDQRFQGQGYGKAACRLLMLKLIEKYQTNKLYLSVYDTNSSAIRLYQQLGFVFNGELDTNGERVMEWTHQNK
# B3: enzyme F1161A (Homo sapiens, UniProt Q9NTI2); chain MLNGAGLDKALKMSLPRRSRIRSSVGPVRSSLGYKKAEDEMSRATSVGDQLEAPARTIYLNQPHLNKFRDNQISTAKYSVLTFLPRFLYEQIRRAANAFFLFIALLQQIPDVSPTGRYTTLVPLIIILTIAGIKEIVEDFKRHKADNAVNKKKTIVLRNGMWHTIMWKEVAVGDIVKVVNGQYLPADVVLLSSSEPQAMCYVETANLDGETNLKIRQGLSHTADMQTREVLMKLSGTIECEGPNRHLYDFTGNLNLDGKSLVALGPDQILLRGTQLRNTQWVFGIVVYTGHDTKLMQNSTKAPLKRSNVEKVTNVQILVLFGILLVMALVSSAGALYWNRSHGEKNWYIKKMDTTSDNFGYNLLTFIILYNNLIPISLLVTLEVVKYTQALFINWDTDMYYIGNDTPAMARTSNLNEELGQVKYLFSDKTGTLTCNIMNFKKCSIAGVTYGHFPELAREPSSDDFCRMPPPCSDSCDFDDPRLLKNIEDRHPTAPCIQEFLTLLAVCHTVVPEKDGDNIIYQASSPDEAALVKGAKKLGFVFTARTPFSVIIEAMGQEQTFGILNVLEFSSDRKRMSVIVRTPSGRLRLYCKGADNVIFERLSKDSKYMEETLCHLEYFATEGLRTLCVAYADLSENEYEEWLKVYQEASTILKDRAQRLEECYEIIEKNLLLLGATAIEDRLQAGVPETIATLLKAEIKIWVLTGDKQETAINIGYSCRLVSQNMALILLKEDSLDATRAAITQHCTDLGNLLGKENDVALIIDGHTLKYALSFEVRRSFLDLALSCKAVICCRVSPLQKSEIVDVVKKRVKAITLAIGDGANDVGMIQTAHVGVGISGNEGMQATNNSDYAIAQFSYLEKLLLVHGAWSYNRVTKCILYCFYKNVVLYIIELWFAFVNGFSGQILFERWCIGLYNVIFTALPPFTLGIFERSCTQESMLRFPQLYKITQNGEGFNTKVFWGHCINALVHSLILFWFPMKALEHDTVLTSGHATDYLFVGNIVYTYVVVTVCLKAGLETTAWTKFSHLAVWGSMLTWLVFFGIYSTIWPTIPIAPDMRGQATMVLSSAHFWLGLFLVPTACLIEDVAWRAAKHTCKKTLLEEVQELETKSRVLGKAVLRDSNGKRLNERDRLIKRLGRKTPPTLFRGSSLQQGVPHGYAASQEEHGAVSQEEVIRAYDTTKKKSRKK
# UniProt Q944I4, sequence (whole entry, looked up): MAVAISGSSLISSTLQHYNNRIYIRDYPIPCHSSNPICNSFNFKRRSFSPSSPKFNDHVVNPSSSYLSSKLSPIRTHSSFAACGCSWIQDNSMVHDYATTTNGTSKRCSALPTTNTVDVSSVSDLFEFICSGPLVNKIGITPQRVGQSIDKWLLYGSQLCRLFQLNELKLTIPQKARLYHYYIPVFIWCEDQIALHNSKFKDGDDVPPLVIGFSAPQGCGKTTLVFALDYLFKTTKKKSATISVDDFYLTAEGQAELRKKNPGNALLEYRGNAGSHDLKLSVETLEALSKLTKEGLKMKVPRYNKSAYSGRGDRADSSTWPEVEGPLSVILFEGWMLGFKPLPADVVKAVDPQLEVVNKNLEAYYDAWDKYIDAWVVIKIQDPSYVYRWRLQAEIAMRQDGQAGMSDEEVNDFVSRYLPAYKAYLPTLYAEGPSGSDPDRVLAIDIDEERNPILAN
Substance,tested on,assay,system,setting,how to read,measurement,value
ALS1 Q169N/V170Q (Oryza sativa),CC(=O)C(=O)O,steady-state kinetics,,"pH 7.5, 37 °C, added: FAD, MgCl2, TPP",,Vmax,0.0131 µmol/min/mg
rCR L34A (Lodderomyces parapsilosis),CC(=O)c1ccc(Cl)cc1,steady-state kinetics,,"pH 7, 30 °C, added: NADH 0.5 mM",,kcat/Km,13500 M⁻¹ s⁻¹
B1 (bglA S39T),O=[N+]([O-])c1ccc(O[C@@H]2O[C@H](CO)[C@@H](O)[C@H](O)[C@H]2O)cc1,steady-state kinetics,,"pH 5.5, 60 °C",,kcat/Km,32400 ± 2800 M⁻¹ s⁻¹
aspterric acid,,,Arabidopsis thaliana Col-0 seeds,"3.125 µg/mL, seed germination",,hypocotyl length,1.87 cm
"enzyme (Arabidopsis thaliana, UniProt Q944I4)",Nc1ncnc2c1ncn2[C@@H]1O[C@H](COP(=O)(O)OP(=O)(O)OP(=O)(O)O)[C@@H](O)[C@H]1O,steady-state kinetics,,"pH 7.8, 30 °C",,Vmax,132 µmol/min/mg
insulin human,,refers to: NIT2 mRNA,"uninfected mouse, brain","i.p., dose not given",relative to: PBS,fold change,1.04
"enzyme (Bos taurus, UniProt F1N7C2)",CCCCCCCC/C=C\CCCCCCCC(=O)OC[C@H](COP(=O)(O)OC[C@H](N)C(=O)O)OC(=O)CCCCCCC/C=C\CCCCCCCC,steady-state kinetics,,"pH 7.5, 37 °C, added: ATP 5 mM",,K0.5,21.5 µM
ALS1 M174L/P171T/R172G (Oryza sativa),CC(=O)C(=O)O,steady-state kinetics,,"pH 7.5, 37 °C, added: FAD, MgCl2, TPP",,Vmax,0.177 µmol/min/mg
B2 (enzyme),CC(=O)SCCNC(=O)CCNC(=O)[C@H](O)C(C)(C)COP(=O)(O)OP(=O)(O)OC[C@H]1O[C@@H](n2cnc3c(N)ncnc32)[C@H](O)[C@@H]1OP(=O)(O)O,steady-state kinetics,,"pH 8, 37 °C, Hill n 1.36, added: spermine 1 mM",,K0.5,205 µM
B3 (enzyme F1161A),CCCCCCCC/C=C\CCCCCCCC(=O)OC[C@H](COP(=O)(O)OC[C@H](N)C(=O)O)OC(=O)CCCCCCC/C=C\CCCCCCCC,steady-state kinetics,,"pH 7.5, 37 °C, added: ATP 5 mM",,K0.5,32.5 µM

# A few entries again:
Substance,tested on,assay,system,setting,how to read,measurement,value
B1 (bglA S39T),O=[N+]([O-])c1ccc(O[C@@H]2O[C@H](CO)[C@@H](O)[C@H](O)[C@H]2O)cc1,steady-state kinetics,,"pH 5.5, 60 °C",,kcat/Km,32400 ± 2800 M⁻¹ s⁻¹
